Experimental data pooled from the literature.
A part holds a random share of what one study measured. Substitutions count along the parent as printed.
Sequence of UniProt Q9ZPY6 (whole entry, looked up): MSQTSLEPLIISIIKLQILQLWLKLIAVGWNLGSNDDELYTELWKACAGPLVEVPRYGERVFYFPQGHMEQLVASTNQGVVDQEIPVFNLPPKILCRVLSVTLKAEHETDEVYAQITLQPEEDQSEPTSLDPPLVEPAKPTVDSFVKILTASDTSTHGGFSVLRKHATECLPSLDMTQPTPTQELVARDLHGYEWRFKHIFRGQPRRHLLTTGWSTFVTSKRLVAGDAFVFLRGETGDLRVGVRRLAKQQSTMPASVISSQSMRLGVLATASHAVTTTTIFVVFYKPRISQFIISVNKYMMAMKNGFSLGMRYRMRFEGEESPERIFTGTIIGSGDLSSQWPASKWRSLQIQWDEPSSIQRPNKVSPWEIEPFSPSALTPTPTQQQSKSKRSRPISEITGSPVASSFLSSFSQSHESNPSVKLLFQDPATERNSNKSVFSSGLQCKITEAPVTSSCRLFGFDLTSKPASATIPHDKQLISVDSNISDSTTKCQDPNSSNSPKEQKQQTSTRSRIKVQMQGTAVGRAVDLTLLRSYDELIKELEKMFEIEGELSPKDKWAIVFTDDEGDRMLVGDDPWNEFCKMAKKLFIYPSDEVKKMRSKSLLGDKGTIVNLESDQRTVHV
Sequence of UniProt Q9C5W9 (whole entry, looked up): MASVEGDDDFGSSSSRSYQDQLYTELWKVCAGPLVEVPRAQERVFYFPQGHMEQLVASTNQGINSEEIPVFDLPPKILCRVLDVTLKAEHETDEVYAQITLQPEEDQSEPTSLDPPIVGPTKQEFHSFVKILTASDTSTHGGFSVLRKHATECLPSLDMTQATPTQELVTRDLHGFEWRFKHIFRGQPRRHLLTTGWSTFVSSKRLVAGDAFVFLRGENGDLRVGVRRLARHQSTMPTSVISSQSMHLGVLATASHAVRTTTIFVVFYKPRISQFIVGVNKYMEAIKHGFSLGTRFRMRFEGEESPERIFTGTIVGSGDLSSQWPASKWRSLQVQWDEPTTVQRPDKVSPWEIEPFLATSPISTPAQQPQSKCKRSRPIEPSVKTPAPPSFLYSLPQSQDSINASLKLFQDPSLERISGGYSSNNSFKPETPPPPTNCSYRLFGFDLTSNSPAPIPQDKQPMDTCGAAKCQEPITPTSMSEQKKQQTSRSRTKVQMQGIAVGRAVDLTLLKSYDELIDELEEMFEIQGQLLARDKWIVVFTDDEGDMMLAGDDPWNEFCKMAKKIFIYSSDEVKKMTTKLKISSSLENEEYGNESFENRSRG
Sequence of UniProt Q9LQE8 (whole entry, looked up): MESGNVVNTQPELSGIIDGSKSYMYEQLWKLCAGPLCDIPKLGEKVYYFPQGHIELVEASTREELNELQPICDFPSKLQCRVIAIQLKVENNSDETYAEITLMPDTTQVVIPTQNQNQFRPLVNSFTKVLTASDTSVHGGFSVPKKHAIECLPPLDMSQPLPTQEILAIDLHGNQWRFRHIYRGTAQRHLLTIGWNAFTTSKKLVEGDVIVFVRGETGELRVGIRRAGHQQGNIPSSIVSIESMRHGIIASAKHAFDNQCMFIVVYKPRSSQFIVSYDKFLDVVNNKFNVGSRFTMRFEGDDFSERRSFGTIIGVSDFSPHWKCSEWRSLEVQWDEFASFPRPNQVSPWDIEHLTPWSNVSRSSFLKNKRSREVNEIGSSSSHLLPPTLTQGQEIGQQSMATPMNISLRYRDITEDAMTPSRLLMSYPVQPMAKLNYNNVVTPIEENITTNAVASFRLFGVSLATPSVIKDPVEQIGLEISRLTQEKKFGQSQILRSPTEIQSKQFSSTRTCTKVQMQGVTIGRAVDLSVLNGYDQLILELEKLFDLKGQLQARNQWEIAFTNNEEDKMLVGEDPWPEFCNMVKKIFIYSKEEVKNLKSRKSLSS
Sequence of UniProt Q9ZSY8 (whole entry, looked up): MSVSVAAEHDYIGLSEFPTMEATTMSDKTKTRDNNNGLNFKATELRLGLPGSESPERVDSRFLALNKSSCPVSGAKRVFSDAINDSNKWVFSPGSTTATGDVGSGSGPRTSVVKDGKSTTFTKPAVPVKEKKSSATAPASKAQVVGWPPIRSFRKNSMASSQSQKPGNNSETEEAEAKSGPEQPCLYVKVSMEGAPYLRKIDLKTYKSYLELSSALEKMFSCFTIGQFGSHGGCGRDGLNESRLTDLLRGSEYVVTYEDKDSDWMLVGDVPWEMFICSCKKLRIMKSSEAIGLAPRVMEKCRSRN
Sequence of UniProt Q9FGV1 (whole entry, looked up): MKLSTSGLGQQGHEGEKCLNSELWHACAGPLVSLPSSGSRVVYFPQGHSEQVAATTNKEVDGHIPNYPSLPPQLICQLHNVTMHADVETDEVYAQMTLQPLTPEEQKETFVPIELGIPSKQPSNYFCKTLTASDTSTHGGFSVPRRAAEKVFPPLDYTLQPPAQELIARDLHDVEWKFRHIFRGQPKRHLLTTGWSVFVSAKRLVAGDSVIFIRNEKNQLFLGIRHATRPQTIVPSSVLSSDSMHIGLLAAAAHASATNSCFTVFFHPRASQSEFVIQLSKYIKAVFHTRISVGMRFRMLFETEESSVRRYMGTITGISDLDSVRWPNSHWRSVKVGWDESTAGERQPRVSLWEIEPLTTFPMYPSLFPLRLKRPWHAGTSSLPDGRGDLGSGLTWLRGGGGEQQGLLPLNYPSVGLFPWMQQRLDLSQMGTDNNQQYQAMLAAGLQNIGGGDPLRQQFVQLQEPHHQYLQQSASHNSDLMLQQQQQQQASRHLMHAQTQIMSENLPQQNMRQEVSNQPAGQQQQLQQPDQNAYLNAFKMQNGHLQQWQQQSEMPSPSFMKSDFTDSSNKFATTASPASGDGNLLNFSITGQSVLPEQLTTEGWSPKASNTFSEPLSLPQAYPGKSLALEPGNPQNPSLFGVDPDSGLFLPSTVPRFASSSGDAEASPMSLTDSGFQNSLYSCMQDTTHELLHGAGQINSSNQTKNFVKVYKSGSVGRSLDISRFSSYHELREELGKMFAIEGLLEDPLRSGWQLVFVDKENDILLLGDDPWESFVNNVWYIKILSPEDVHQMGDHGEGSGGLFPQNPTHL

Set 1
Target: CCNB1, cyclin fold, Cln2 fusion (human)
Technique: yeast growth competition, sequencing
Medium: yeast
Notes: strong parent motif
Relative to: not given
Direction: higher = stronger binding
Endpoint: normalised enrichment score
Parent: MICAL3 docking peptide (human); LQLRRQLSFSEDS
LPLRRQLSFSEDS [Q2P]: 5.54
LLLRRQLSFSEDS [Q2L]: 4.36
LQLRPQLSFSEDS [R5P]: 0.0473
LQLRRQLSFLEDS [S10L]: 1.79
LQLHRQLSFSEDS [R4H]: 2.46
LQLRRILSFSEDS [Q6I]: 1.36
LQLRRQLSFSEAS [D12A]: 4.64
LDLRRQLSFSEDS [Q2D]: 3.81
LQLRRQLSFGEDS [S10G]: 4.7
LQLRRQLSFSRDS [E11R]: 1.5
LQLRRQLSFPEDS [S10P]: 2.96
LQLREQLSFSEDS [R5E]: 0.248
LQLRRQLSFSEYS [D12Y]: 3.52
LQLRRQLSNSEDS [F9N]: -0.0624
LQLRRQLSFSESS [D12S]: 4.08
LQVRRQLSFSEDS [L3V]: 5.59
LQLRRQLIFSEDS [S8I]: 2.84
LQLRRQLSFSVDS [E11V]: 2.1
LQCRRQLSFSEDS [L3C]: 3.82
LQLVRQLSFSEDS [R4V]: 4.89
LQLRRQLSWSEDS [F9W]: 1.95
LQLRRQLSFSADS [E11A]: 3.15
LQLRRQLDFSEDS [S8D]: 3.75
LQKRRQLSFSEDS [L3K]: 0.272
LQLRRQLSFNEDS [S10N]: 4.66

Set 2
Target: Histone acetyltransferase KAT6A, both winged helices, GST fusion (KAT6A, Homo sapiens, UniProt Q92794, residues 1-181)
Technique: protein binding microarray
Molecule type: double-stranded DNA, one strand shown
Medium: in vitro
Tested at: not given
Notes: 8-mer, flanks averaged, mean of 2 arrays, mostly near background
Relative to: not given
Direction: higher = stronger binding
Endpoint: E-score
Residues (chain): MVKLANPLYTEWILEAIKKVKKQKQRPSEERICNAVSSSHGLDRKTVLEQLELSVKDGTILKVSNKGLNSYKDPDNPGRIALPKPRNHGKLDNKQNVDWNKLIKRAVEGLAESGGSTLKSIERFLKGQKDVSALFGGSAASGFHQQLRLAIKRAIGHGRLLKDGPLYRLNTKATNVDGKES
ACTGATCT: -0.0723
CTATTGAA: -0.081
CCAGTGCG: 0.0879
CAAGCACG: 0.0912
CGTCAAAG: -0.0662
AGCAGGAC: -0.129
AACGGCGC: 0.275
AAGCTATC: -0.0463
CAGCAACC: -0.127
CCAGTTCC: -0.0104
CCGGAATC: 0.116
CAGAGCAA: -0.249
TCGTTAGA: -0.115
CGGACGCA: 0.199
CAGAGTGC: -0.124
ACATATAC: -0.0822
ACCATACT: -0.216
ATGCTTCG: -0.00409

Set 3
Target: ABI1, truncated, D143A, DHFR fusion (Arabidopsis thaliana, UniProt P49597)
Technique: DHFR PCA, dose-response
Medium: yeast
Notes: Hill fit, mean, not affinity
Together with: (+)-ABA, dose series
Direction: lower = more sensitive
Endpoint: ABA EC50
Parent: PYL1, truncated, DHFR fusion (Arabidopsis thaliana, UniProt Q8VZS8); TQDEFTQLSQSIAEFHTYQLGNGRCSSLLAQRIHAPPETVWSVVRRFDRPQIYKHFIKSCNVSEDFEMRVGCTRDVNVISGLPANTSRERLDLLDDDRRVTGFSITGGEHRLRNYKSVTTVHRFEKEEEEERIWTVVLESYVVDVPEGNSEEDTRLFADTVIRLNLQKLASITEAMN
C25Y: 209 µM
V118Y: 192 µM
G21R: 2.44 µM
M176A: 2.3 µM
R90L: 66.4 µM
S104T: 2.46 µM
L20C: 1.7 µM
I57Y: 187 µM
V44C: 12.8 µM
S26Q: 7.91 µM
L8D: 131 µM
I79N: 20.7 µM
T173W: 67.5 µM
S42N: 4.25 µM
V136E: 134 µM
Q31A: 41.7 µM
N22Y: 2.3 µM
R69G: 3.9 µM
W134T: 0.961 µM
H34S: 2.69 µM
E147P: 2.66 µM
N114G: 4.02 µM
D75H: 1.36 µM
T154L: 78.2 µM
D97G: 4.05 µM

Set 4
Molecule: B1 (IAA14)
Technique: two-hybrid
Direction: higher = firmer interaction
Endpoint: positive tests
B1: IAA14 (Arabidopsis thaliana, UniProt Q38832); chain MNLKETELCLGLPGGTETVESPAKSGVGNKRGFSETVDLKLNLQSNKQGHVDLNTNGAPKEKTFLKDPSKPPAKAQVVGWPPVRNYRKNVMANQKSGEAEEAMSSGGGTVAFVKVSMDGAPYLRKVDLKMYTSYKDLSDALAKMFSSFTMGSYGAQGMIDFMNESKVMDLLNSSEYVPSYEDKDGDWMLVGDVPWPMFVESCKRLRIMKGSEAIGLAPRAMEKFKNRS
ARF11 500-622 (Arabidopsis thaliana, UniProt Q9ZPY6); relative to: out of 4 tests: 1
ARF14 497-605 (Arabidopsis thaliana, UniProt Q9LQE8); relative to: out of 4 tests: 0
IAA27 (Arabidopsis thaliana, UniProt Q9ZSY8); relative to: out of 4 tests: 2
ARF18 482-602 (Arabidopsis thaliana, UniProt Q9C5W9); relative to: out of 4 tests: 1
ARF8 699-811 (Arabidopsis thaliana, UniProt Q9FGV1); relative to: out of 2 tests: 1

Some of these lines once more (set 3):
Q31A: 41.7 µM
V136E: 134 µM
R69G: 3.9 µM
I79N: 20.7 µM
N114G: 4.02 µM
